Assay results pooled from the literature.
A part holds a random share of what one study measured. Substitutions count along the parent as printed.

Set 1
Target: RNA binding protein fox-1 homolog 2, RRM domain, GST-SBP tag (RBFOX2, Homo sapiens, UniProt O43251-10, residues 100-194)
Method: RNA Bind-n-Seq
Molecule type: RNA
Sample: in vitro
Tested at: 365 nM
Setting: natural RNA segment, single round, ends assumed
Relative to: no-protein control
Direction: higher = stronger binding
Endpoint: RBNS enrichment (R)
Constant ends, left off below: GGGAGUUCUACAGUCCGACGAUC … UGGAAUUCUCGGGUGCCAA
GGAUUGUGGGGAGAAAUCCCAGGUCAGGCCACAGCUGCAUGUUGCAUUAAAUGUGUUCUCAUGUCGCAGUUUGGCUCAUAGUGAUAAUAAUAGCUGGUAUGUAUCCAGCU: 1.41
UUUAUAAAAUCAUUUUCAAGUUUCUUCAGAUGGGAAGGUGAUUCUGUGACCUUUCUUAUUUCCCUGUUAUCAAGGAAACAGUUUUACCUAUUGAGCUAUAAAAAAAAAAA: 0.545
UGUCCGUCCAUUCUGGGCCACAGCCAUGAGAUGCCCCUCCUGCUGUGAAGGUAGCUGUGCGCUGGCUCCCAGUGUGCCUGCAGCUGCCACAGGCCAGCACACGGUGGGGA: 0.381
UGAUGUUUGAUCGGAUGAAGAACCAGAACCAGAAGAGAGGAUGCACGGUCCUCGCUAGGGGCCCCAUGUCACCUGCAUCAGGACUAUUGGCACUCACUAGCUGCCCCUAC: 2.44
AUCUGUCCCUUGACAGGGAAGGUAGGCUUCUGGCUAGCAGAGCAGGUGACACAAACCAGUUUAUUGGAGAACAGCCUGGACAAAGGCCCAUAGGUAGGUAAAAUAGUAUG: 0.514
CCACCUCAACCUGGCAUUCUGUGUUAAUAAUACAGAUACUAUUUUUAUAAAAUCAUUUUCAAGUUUCUUCAGAUGGGAAGGUGAUUCUGUGACCUUUCUUAUUUCCCUGU: 0.524
CAGCAGACUUUCUCUGUGUAUGAGUGUGAAUGAUCAAGUCCUUUGUGAAUAUUUUCAACUAUGUAGGUAAAUUCUUAAUGUUCACAUAGUGAAAUAAAUUCUGAUUCUUC: 0.828
AUACAGAGGCAAGAUUUUAGGAGUUUGAAUUGGUUCUUGUUUGUUCUCAUUCUACAUAUAAUUUUGUUUAUUUCAGAUAAUUUUAUGUAAACAAAUUAAGAGUUAUUCAU: 0.94

Set 2
Target: ABI1, truncated, D143A, DHFR fusion (Arabidopsis thaliana)
Method: DHFR PCA, deep sequencing
Sample: yeast
Setting: methotrexate growth selection, single substitutions
Together with: (+)-ABA 200 µM
Relative to: wild-type fitted maximum
Direction: higher = stronger binding
Endpoint: relative binding score
Parent: PYL1, truncated, DHFR fusion (Arabidopsis thaliana); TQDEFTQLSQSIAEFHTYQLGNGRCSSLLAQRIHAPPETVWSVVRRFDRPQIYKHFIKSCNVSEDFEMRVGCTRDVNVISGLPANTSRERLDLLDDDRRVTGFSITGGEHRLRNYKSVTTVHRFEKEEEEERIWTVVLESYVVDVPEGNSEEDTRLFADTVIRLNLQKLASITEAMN
H55A: 104%
G148P: 71.7%
K168W: 96.1%
D92N: 82.4%
F103H: 40.1%
I12F: 64.5%
D96V: 45.2%
I172E: 71.8%
I52H: 93.7%

Set 3
Organism: Saccharomyces cerevisiae
Effect on: binding
Method: yeast competitive growth sequencing
Molecule type: peptide
Strain: cyclin D1-Cln2 strain
Sample: peptide tiling library
Direction: direction not given
Endpoint: enrichment score
EPRNLLSLFEDTLDPT: 0.554
RQVRRDLFAF: -2.04
ESSQLTVQAEFDMSAI: 1.61
VLPGGVPSPGASLTSM: 0.829
ASVLSKPIFCFVKD: 1.43

Further values, each from its own experiment
PhoQ, residues 284 288 289 292 302 303 SNGLAW  fold induction (PhoP, residues 12 14 15 18 19 LHHSG (Escherichia coli, UniProt P23836); Sort-seq, measured: YFP reporter; E. coli; PhoQ-PhoP variant library, together with: 10 µM Mg2+; relative to: high Mg2+ state, higher = stronger signaling): 11.8
